Assay results gathered from unrelated publications.
Protocols differ between the studies behind these lines. ± gives the spread as reported.
lecB: Fucose-binding lectin PA-IIL (lecB, Pseudomonas aeruginosa, UniProt Q9HYN5)
UniProt Q9UER7, sequence (55-144, looked up): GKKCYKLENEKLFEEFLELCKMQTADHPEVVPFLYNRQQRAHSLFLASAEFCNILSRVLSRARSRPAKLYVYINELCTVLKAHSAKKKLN
UniProt P0A988, sequence (whole entry, looked up): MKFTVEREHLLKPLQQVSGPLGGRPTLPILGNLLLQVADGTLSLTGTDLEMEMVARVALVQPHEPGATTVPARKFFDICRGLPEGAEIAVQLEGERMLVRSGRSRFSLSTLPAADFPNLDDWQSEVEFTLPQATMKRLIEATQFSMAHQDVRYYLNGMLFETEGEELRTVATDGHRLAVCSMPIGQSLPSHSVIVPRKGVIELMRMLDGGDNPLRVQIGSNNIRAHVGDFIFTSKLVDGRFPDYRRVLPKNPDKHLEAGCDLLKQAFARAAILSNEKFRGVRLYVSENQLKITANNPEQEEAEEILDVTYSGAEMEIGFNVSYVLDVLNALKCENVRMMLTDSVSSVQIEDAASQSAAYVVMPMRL
UniProt Q96NY8, sequence (whole entry, looked up): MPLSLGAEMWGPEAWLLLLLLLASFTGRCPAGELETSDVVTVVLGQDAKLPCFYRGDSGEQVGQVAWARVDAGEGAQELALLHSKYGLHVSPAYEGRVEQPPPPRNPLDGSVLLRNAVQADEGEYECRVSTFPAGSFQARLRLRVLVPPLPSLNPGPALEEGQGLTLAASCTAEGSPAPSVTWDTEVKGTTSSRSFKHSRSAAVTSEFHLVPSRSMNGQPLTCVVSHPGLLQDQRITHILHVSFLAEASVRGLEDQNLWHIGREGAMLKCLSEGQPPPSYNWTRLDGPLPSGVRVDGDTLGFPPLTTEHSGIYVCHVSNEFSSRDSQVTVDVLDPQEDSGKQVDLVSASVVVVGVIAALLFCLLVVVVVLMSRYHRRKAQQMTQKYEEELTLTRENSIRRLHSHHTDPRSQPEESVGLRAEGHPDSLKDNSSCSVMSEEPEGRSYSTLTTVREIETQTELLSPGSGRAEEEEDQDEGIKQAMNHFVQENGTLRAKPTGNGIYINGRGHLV
UniProt Q9LFP6, sequence (whole entry, looked up): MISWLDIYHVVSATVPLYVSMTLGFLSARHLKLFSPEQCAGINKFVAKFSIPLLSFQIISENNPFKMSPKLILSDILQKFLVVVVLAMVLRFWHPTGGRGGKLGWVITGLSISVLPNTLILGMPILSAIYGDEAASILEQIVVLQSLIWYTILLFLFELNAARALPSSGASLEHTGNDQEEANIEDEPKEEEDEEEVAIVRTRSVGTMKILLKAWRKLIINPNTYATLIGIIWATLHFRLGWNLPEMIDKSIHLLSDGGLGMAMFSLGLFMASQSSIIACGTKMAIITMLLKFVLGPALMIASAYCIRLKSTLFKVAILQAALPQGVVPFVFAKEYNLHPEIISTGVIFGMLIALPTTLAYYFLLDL
UniProt P11362, sequence (whole entry, looked up): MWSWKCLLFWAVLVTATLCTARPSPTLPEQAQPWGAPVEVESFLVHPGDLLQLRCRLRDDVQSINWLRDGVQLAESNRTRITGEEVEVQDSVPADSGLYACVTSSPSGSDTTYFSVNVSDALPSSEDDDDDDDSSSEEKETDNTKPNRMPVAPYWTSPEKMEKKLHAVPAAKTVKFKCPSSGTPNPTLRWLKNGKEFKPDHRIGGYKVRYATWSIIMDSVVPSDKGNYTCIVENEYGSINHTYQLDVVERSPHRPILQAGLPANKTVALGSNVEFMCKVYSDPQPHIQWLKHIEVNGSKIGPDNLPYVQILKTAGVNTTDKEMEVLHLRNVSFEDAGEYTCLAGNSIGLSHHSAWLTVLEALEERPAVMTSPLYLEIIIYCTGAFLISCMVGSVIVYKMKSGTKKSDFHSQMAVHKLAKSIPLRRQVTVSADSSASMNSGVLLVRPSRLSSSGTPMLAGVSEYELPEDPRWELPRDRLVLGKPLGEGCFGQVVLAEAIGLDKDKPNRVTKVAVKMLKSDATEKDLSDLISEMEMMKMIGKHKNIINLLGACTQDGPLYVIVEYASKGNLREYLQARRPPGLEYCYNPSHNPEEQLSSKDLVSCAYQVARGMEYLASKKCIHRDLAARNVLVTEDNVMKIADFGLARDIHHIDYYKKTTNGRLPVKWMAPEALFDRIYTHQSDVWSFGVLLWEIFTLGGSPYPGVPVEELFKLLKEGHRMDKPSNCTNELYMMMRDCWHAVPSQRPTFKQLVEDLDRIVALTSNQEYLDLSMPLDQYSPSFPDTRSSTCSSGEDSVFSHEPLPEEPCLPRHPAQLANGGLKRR
UniProt P25440, sequence (whole entry, looked up): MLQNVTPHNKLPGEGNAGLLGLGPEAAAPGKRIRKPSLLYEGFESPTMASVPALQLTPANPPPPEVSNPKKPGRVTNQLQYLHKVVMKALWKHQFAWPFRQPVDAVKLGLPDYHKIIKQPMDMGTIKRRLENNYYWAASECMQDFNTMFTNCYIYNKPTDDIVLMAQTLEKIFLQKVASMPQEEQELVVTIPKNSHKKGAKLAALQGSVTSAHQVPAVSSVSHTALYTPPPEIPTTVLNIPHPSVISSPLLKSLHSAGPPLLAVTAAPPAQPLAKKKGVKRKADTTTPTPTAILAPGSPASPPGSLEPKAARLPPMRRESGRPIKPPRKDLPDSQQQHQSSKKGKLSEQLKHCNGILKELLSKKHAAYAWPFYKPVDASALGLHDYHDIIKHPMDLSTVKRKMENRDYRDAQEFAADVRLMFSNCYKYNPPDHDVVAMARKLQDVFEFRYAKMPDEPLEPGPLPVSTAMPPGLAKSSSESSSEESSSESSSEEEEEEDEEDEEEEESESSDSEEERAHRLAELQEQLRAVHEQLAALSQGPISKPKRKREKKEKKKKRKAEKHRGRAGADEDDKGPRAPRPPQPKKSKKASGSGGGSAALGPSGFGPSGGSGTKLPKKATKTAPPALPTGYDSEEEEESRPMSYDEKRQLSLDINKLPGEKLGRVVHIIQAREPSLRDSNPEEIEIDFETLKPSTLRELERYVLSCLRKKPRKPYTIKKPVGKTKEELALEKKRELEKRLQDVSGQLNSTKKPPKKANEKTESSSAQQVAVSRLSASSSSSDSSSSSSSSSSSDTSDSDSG
UniProt P09104, sequence (whole entry, looked up): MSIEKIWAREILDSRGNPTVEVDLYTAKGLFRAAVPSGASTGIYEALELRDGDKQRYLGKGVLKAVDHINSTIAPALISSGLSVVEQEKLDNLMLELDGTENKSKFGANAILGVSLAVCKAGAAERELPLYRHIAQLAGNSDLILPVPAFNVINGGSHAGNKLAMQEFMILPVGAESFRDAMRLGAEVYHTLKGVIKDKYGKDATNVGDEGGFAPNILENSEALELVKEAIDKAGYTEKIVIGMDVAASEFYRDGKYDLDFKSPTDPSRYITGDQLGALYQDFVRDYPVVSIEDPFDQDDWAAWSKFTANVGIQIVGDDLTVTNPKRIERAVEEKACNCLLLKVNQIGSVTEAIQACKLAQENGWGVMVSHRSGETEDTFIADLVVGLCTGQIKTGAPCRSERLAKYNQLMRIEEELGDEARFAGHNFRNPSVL
UniProt O04197, sequence (whole entry, looked up): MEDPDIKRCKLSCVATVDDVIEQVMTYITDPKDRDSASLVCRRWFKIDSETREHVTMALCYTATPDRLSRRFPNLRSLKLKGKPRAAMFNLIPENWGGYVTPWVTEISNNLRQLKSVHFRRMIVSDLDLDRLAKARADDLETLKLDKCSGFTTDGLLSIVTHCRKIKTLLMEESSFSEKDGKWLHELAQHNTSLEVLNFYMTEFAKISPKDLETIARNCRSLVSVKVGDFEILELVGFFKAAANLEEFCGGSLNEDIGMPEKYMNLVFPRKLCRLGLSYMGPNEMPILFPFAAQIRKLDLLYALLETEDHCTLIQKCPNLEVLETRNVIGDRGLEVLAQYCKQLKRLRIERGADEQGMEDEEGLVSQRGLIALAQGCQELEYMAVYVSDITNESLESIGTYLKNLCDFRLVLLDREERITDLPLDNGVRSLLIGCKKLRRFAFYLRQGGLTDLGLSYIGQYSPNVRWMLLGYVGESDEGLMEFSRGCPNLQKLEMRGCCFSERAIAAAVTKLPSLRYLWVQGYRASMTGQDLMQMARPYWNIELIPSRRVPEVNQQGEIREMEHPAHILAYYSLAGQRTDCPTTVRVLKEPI
UniProt Q8N8U2, sequence (whole entry, looked up): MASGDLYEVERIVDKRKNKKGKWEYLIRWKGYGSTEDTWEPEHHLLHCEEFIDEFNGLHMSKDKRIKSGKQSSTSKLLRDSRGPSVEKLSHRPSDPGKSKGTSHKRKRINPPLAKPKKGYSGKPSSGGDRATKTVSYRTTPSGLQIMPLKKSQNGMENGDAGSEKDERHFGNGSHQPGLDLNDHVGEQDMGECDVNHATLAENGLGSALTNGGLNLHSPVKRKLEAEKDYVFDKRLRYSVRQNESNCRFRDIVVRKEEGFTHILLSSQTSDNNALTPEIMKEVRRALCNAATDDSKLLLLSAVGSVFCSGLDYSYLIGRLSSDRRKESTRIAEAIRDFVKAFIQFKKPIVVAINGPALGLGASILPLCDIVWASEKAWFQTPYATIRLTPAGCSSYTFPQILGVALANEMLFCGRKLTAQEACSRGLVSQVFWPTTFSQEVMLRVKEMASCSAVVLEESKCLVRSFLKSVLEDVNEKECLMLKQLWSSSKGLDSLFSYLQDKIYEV
UniProt Q06911, sequence (whole entry, looked up): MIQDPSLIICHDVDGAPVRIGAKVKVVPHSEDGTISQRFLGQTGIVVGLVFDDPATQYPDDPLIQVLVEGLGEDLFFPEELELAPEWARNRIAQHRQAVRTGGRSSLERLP

Compound	target	assay	system	conditions	how to read	Kd [nM]
CC[C@H](C)[C@H](NC(=O)[C@H](Cc1c[nH]cn1)NC(=O)[C@H](CCCCNC(=O)[C@@H](NC(=O)[C@H](CCCCN)NC(=O)CSC[C@H](NC(=O)[C@H](Cc1ccccc1)NC(=O)[C@H](CCCCNC(=O)[C@H](CC(C)C)NC(=O)[C@@H]1CCCN1C(=O)[C@H](CCCCN)NC(=O)C[C@@H]1O[C@@H](C)[C@@H](O)[C@@H](O)[C@@H]1O)NC(=O)[C@H](CC(C)C)NC(=O)[C@@H]1CCCN1C(=O)[C@H](CCCCN)NC(=O)CCS[C@@H]1O[C@H](CO)[C@H](O)[C@H](O)[C@H]1O)C(N)=O)[C@@H](C)CC)NC(=O)[C@@H](NC(=O)[C@H](CCCCN)NC(=O)CSC[C@H](NC(=O)[C@H](Cc1ccccc1)NC(=O)[C@H](CCCCNC(=O)[C@H](CC(C)C)NC(=O)[C@@H]1CCCN1C(=O)[C@H](CCCCN)NC(=O)C[C@@H]1O[C@@H](C)[C@@H](O)[C@@H](O)[C@@H]1O)NC(=O)[C@H](CC(C)C)NC(=O)[C@@H]1CCCN1C(=O)[C@H](CCCCN)NC(=O)CCS[C@@H]1O[C@H](CO)[C@H](O)[C@H](O)[C@H]1O)C(N)=O)[C@@H](C)CC)C(N)=O	lecB	binding, ITC		pH 7.5		121
Cc1cc(Cl)ccc1OCC(=O)O	PIN8 (Arabidopsis thaliana, UniProt Q9LFP6)	cell-free assay				137000
C/C=C/C(=O)NC[C@H](NC(=O)[C@H](CC1CCCCC1)NC(=O)[C@H](CCC(N)=O)NC(C)=O)C(=O)N[C@@H](CC(C)C)C(=O)N[C@@H](Cc1ccccc1)C(=O)O	Beta sliding clamp (Escherichia coli, UniProt P0A988)	binding, ITC				402
COC(=O)C(C)C1N=C(c2ccc(Cl)cc2)c2cc(OC)ccc2-n2c(C)nnc21 (stereo not shown)	Bromodomain-containing protein 2, BD2 (BRD2, Homo sapiens, UniProt P25440)	binding, ITC				300
C[C@@H](O)[C@H](NC(=O)[C@H](CCCCN)NC(=O)CCCC(=O)O)C(=O)NCC(=O)N[C@@H](CC(=O)O)C(=O)N[C@@H](CCC(=O)O)C(=O)N[C@@H](CCCCN)C(=O)N[C@@H](CCCCN)C(=O)NCC(=O)NCC(=O)N[C@@H](Cc1ccc(O)cc1)C(=O)NCC(=O)N[C@@H](CCCNC(=N)N)C(=O)N[C@@H](CCCCN)C(=O)N[C@@H](CCCCN)C(=O)N[C@@H](CCCNC(=N)N)C(=O)N[C@@H](CCCNC(=N)N)C(=O)N[C@@H](CCC(N)=O)C(=O)N[C@@H](CCCNC(=N)N)C(=O)N[C@@H](CCCNC(=N)N)C(=O)N[C@@H](CCCNC(=N)N)C(N)=O	HSP90AA1 (Homo sapiens, UniProt P07900)	binding, field-effect biosensor		pH 7.4		30000 ± 5440
CSCC[C@H](NC(C)=O)C(=O)N[C@H]1CSCc2cc3cc(c2)CSC[C@@H](C(=O)N[C@H](C(=O)N[C@@H](C)C(=O)N[C@@H](Cc2ccc(O)cc2)C(=O)N[C@@H](CCCCN)C(=O)N[C@@H](Cc2ccc(O)cc2)C(=O)NCC(=O)N[C@@H](CO)C(=O)NCC(=O)N[C@@H](CO)C(=O)NCC(=O)N[C@@H](CO)C(=O)N[C@@H](CC(=O)O)C(=O)N[C@@H](Cc2ccc(O)cc2)C(=O)N[C@@H](CCCCN)C(=O)N[C@@H](CC(=O)O)C(=O)N[C@@H](CC(=O)O)C(=O)N[C@@H](CC(=O)O)C(=O)N[C@@H](CC(=O)O)C(=O)N[C@@H](CCCCN)C(N)=O)[C@@H](C)O)NC(=O)[C@H](Cc2ccccc2)NC(=O)[C@H](CCCCN)NC(=O)[C@H](CSC3)NC(=O)[C@H](Cc2ccccc2)NC(=O)[C@H](CC(N)=O)NC(=O)[C@H](CC(C)C)NC(=O)[C@H]([C@@H](C)O)NC1=O	FGFR1 (Homo sapiens, UniProt P11362)	binding, BLI				> 10000
CC[C@H](C)[C@H](N)C(=O)N[C@@H](CO)C(=O)N[C@@H](Cc1ccccc1)C(=O)N[C@@H]1CSCc2ccc(cc2)-c2ccc(cc2)CSC[C@@H](C(=O)N[C@@H](CCC(=O)O)C(=O)N[C@@H](CO)C(=O)NCC(=O)N[C@@H](CO)C(N)=O)NC(=O)[C@H](Cc2ccc(O)cc2)NC(=O)[C@H](Cc2ccc(O)cc2)NC(=O)[C@H](CC(=O)O)NC(=O)[C@H](CC(C)C)NC(=O)[C@H](CC(C)C)NC(=O)[C@H](CCC(=O)O)NC1=O	HIV-1 capsid C-terminal domain M184A/W185A	binding, isothermal titration calorimetry				17500 ± 6200
CC[C@H](C)[C@@H]1NC(=O)[C@@H]2CCCN2C(=O)[C@H](Cc2c[nH]c3ccccc23)NC(=O)[C@H](CO)NC(=O)[C@H](Cc2c[nH]c3ccccc23)NC(=O)[C@H](CC(N)=O)NC(=O)[C@H](CCCCN)NC(=O)[C@H](CCSC)NC(=O)[C@@H]2CSCCC(=O)N3CN(CN(C3)C(=O)CCSC[C@H](NC(=O)[C@H](C)N)C(=O)N3CCC[C@H]3C(=O)N[C@@H](Cc3ccccc3)C(=O)NCC(=O)N2)C(=O)CCSC[C@@H](C(=O)N[C@H](C(=O)N[C@@H](CC(N)=O)C(=O)N[C@@H](CCCCN)C(=O)N(C)CC(=O)N(C)CC(=O)N(C)CC(=O)N(C)CC(=O)N(C)CC(=O)N(C)CC(=O)N[C@@H](CCCCNC(=O)c2ccc(C(=O)O)c(-c3c4ccc(=O)cc-4oc4cc(O)ccc34)c2)C(N)=O)[C@@H](C)O)NC(=O)[C@H](Cc2c[nH]c3ccccc23)NC1=O	Nectin-4, extracellular domain (Homo sapiens, UniProt Q96NY8)	binding, fluorescence polarization				19.4
N[C@@H](Cc1ccccc1)P(=O)(O)O	PAL1 (Petroselinum crispum, UniProt P24481, Y110F)	ITC		pH 8.0, 30 °C		8900
CC(C)C[C@H](NC(=O)[C@H](CCCNC(=N)N)NC(=O)[C@H](CCC(=O)O)NC(=O)[C@H](CCCCN)NC(=O)[C@H](CCCNC(=N)N)NC(=O)[C@H](CCCCN)NC(=O)[C@]1(C)CCCC=CCCC[C@](C)(NC(=O)[C@H](CC(C)C)NC(=O)[C@H](CO)NC(=O)[C@H](C)NC(=O)[C@H](CCCCN)NC(=O)[C@H](CCCNC(=N)N)NC(=O)[C@H](C)NC(=O)[C@H](CCC(N)=O)NC(=O)[C@@H]2CCCN2C(=O)[C@@H](NC(=O)[C@H](CO)NC(=O)c2ccc3c(c2)C(=O)OC32c3ccc(N(C)C)cc3Oc3cc(N(C)C)ccc32)C(C)C)C(=O)N[C@@H](CCCNC(=N)N)C(=O)N[C@@H](Cc2ccccc2)C(=O)N[C@@H](CC(C)C)C(=O)N1)C(=O)O	COI1, with JA-Ile (Arabidopsis thaliana, UniProt O04197)	COI1-JAZ binding, fluorescence anisotropy		pH 7.8, 25 °C, together with: IP5 100 nM	lower = stronger binding	29 ± 11
CC[C@H](C)[C@H](NC(=O)[C@H](CCC(=O)O)NC(=O)[C@]1(C)CCCC=CCCCCCC[C@@](C)(NC(=O)[C@H](CCCNC(=N)N)NC(=O)[C@H](CC(N)=O)NC(=O)[C@H](CCC(=O)O)NC(=O)[C@@H]2CCCN2C(=O)[C@H](CC(=O)O)NC(=O)[C@H](CC(N)=O)NC(=O)[C@H](CC(=O)O)NC(=O)[C@H](CC(=O)O)NC(=O)[C@@H](N)CO)C(=O)N[C@@H](C)C(=O)N[C@@H](CCCCN)C(=O)N[C@@H](CCCCN)C(=O)N[C@@H](CCSC)C(=O)N[C@@H](CC(C)C)C(=O)N[C@@H](CC(C)C)C(=O)N1)C(=O)N[C@@H](CCCCN)C(=O)N[C@@H](C)C(=O)N[C@@H](CC(N)=O)C(=O)N[C@@H](CC(C)C)C(=O)N[C@@H](CO)C(=O)O	Death domain-associated protein 6, residues 55-144 (Homo sapiens, UniProt Q9UER7)	isothermal titration calorimetry		pH 7.5, 25 °C		550
CC(C)[C@H](NC(=O)[C@@H](NC(=O)[C@H](CO)NC(=O)[C@H](CS)NC(=O)[C@H](CC(=O)O)NC(=O)[C@@H]1CCCN1C(=O)[C@H](CCCCN)NC(=O)[C@@H](N)CO)[C@@H](C)O)C(=O)NCC(=O)NCC(=O)N1CCC[C@H]1C(=O)N[C@@H](CCCNC(=N)N)C(=O)O	Gamma-enolase (ENO2, Homo sapiens, UniProt P09104)	biolayer interferometry				1000
CC[C@H](C)[C@H](NC(=O)[C@H](Cc1cnc[nH]1)NC(=O)[C@H](CCCCNC(=O)[C@@H](NC(=O)[C@H](CCCCN)NC(=O)[C@H](Cc1ccccc1)NC(=O)[C@H](CCCCNC(=O)[C@H](CC(C)C)NC(=O)[C@@H]1CCCN1C(=O)[C@H](CCCCN)NC(=O)C[C@@H]1O[C@@H](C)[C@@H](O)[C@@H](O)[C@@H]1O)NC(=O)[C@H](CC(C)C)NC(=O)[C@@H]1CCCN1C(=O)[C@H](CCCCN)NC(=O)C[C@@H]1O[C@@H](C)[C@@H](O)[C@@H](O)[C@@H]1O)[C@@H](C)CC)NC(=O)[C@@H](NC(=O)[C@H](CCCCN)NC(=O)[C@H](Cc1ccccc1)NC(=O)[C@H](CCCCNC(=O)[C@H](CC(C)C)NC(=O)[C@@H]1CCCN1C(=O)[C@H](CCCCN)NC(=O)C[C@@H]1O[C@@H](C)[C@@H](O)[C@@H](O)[C@@H]1O)NC(=O)[C@H](CC(C)C)NC(=O)[C@@H]1CCCN1C(=O)[C@H](CCCCN)NC(=O)C[C@@H]1O[C@@H](C)[C@@H](O)[C@@H](O)[C@@H]1O)[C@@H](C)CC)C(N)=O	lecB	binding, ITC		pH 7.5		66
CC(C)C[C@H](NC(=O)[C@H](C)NC(=O)[C@H](CCCCN)NC(=O)[C@H](CCCNC(=N)N)NC(=O)[C@H](CCC(=O)O)NC(=O)[C@H](C)NC(=O)[C@H](CCC(=O)O)NC(=O)[C@H](CCCCN)NC(=O)[C@H](CCCCN)NC(=O)[C@H](CC(=O)O)NC(=O)[C@H](Cc1c[nH]cn1)NC(=O)[C@H](CC(=O)O)NC(=O)[C@H](Cc1c[nH]cn1)NC(=O)[C@H](CCCNC(=N)N)NC(=O)[C@H](CCC(=O)O)NC(=O)[C@H](CO)NC(=O)[C@H](CCCCN)NC(=O)[C@H](CC(C)C)NC(=O)[C@H](CCCNC(=N)N)NC(=O)[C@H](CCC(=O)O)NC(=O)[C@H](CC(C)C)NC(=O)[C@H](CCC(=O)O)NC(=O)[C@H](C)NC(=O)[C@H](CCC(=O)O)NC(=O)[C@H](CCC(=O)O)NC(=O)[C@H](C)NC(=O)[C@H](C)NC(=O)[C@H](CCC(=O)O)NC(=O)[C@H](CC(N)=O)NC(=O)[C@H](CCCCN)NC(=O)[C@H](CC(C)C)NC(=O)[C@H](CCCNC(=N)N)NC(=O)[C@H](CCC(N)=O)NC(=O)[C@H](CC(C)C)NC(=O)[C@H](CCC(=O)O)NC(=O)[C@H](C)NC(=O)[C@H](CC(=O)O)NC(=O)[C@H](C)NC(=O)[C@@H](NC(=O)[C@H](CC(C)C)NC(=O)[C@H](CCCCN)NC(=O)[C@H](CCC(=O)O)NC(=O)[C@@H](NC(=O)[C@H](CO)NC(=O)CN)C(C)C)[C@@H](C)O)C(=O)N[C@@H](CCC(=O)O)C(=O)N[C@@H](CC(=O)O)C(=O)N[C@@H](CCCCN)C(=O)N[C@@H](CC(C)C)C(=O)N[C@@H](C)C(=O)N[C@@H](CC(=O)O)C(=O)N[C@@H](Cc1ccc(O)cc1)C(=O)O	Plasminogen, kringle 2 domain (PLG, Homo sapiens, UniProt P00747, C188G/E240D/L256Y)	isothermal titration calorimetry	K2-plasminogen	pH 7.4, 25 °C		9 ± 2
CC[C@H](C)[C@H](NC(=O)CNC(C)=O)C(=O)N[C@@H](CCCNC(=N)N)C(=O)N[C@@H](CCC(=O)O)C(=O)N[C@@H](C)C(=O)N[C@H](C(=O)N[C@@H](CC(C)C)C(=O)N[C@@H](CCCNC(=N)N)C(=O)N[C@@H](C)C(=O)N[C@@H](Cc1c[nH]c2ccccc12)C(=O)N[C@@H](CCC(=O)O)C(=O)N[C@@H](CCCNC(=N)N)C(=O)N[C@@H](CCCNC(=N)N)C(=O)N[C@@H](Cc1ccc(O)cc1)C(=O)NCC(N)=O)[C@@H](C)O	Antirepressor protein CarS (carS, Myxococcus xanthus, UniProt Q06911)	ITC		pH 7.5, 25 °C		300 ± 50
CCN(CCCC[C@H](NC(=O)[C@H](Cc1ccc(OC)c(OC)c1)NC(=O)[C@H](C)NC(=O)[C@H](CC1CCCCC1)NC(=O)c1ccc(Br)c(N)c1)C(=O)N[C@@H](CO)C(=O)OC)C(C)C	CDYL2 (Homo sapiens, UniProt Q8N8U2)	binding, ITC				~1000

A few entries again:
Compound	target	assay	system	conditions	how to read	Kd [nM]
CC[C@H](C)[C@H](NC(=O)[C@H](Cc1cnc[nH]1)NC(=O)[C@H](CCCCNC(=O)[C@@H](NC(=O)[C@H](CCCCN)NC(=O)[C@H](Cc1ccccc1)NC(=O)[C@H](CCCCNC(=O)[C@H](CC(C)C)NC(=O)[C@@H]1CCCN1C(=O)[C@H](CCCCN)NC(=O)C[C@@H]1O[C@@H](C)[C@@H](O)[C@@H](O)[C@@H]1O)NC(=O)[C@H](CC(C)C)NC(=O)[C@@H]1CCCN1C(=O)[C@H](CCCCN)NC(=O)C[C@@H]1O[C@@H](C)[C@@H](O)[C@@H](O)[C@@H]1O)[C@@H](C)CC)NC(=O)[C@@H](NC(=O)[C@H](CCCCN)NC(=O)[C@H](Cc1ccccc1)NC(=O)[C@H](CCCCNC(=O)[C@H](CC(C)C)NC(=O)[C@@H]1CCCN1C(=O)[C@H](CCCCN)NC(=O)C[C@@H]1O[C@@H](C)[C@@H](O)[C@@H](O)[C@@H]1O)NC(=O)[C@H](CC(C)C)NC(=O)[C@@H]1CCCN1C(=O)[C@H](CCCCN)NC(=O)C[C@@H]1O[C@@H](C)[C@@H](O)[C@@H](O)[C@@H]1O)[C@@H](C)CC)C(N)=O	lecB	binding, ITC		pH 7.5		66
